Measurements pooled from the literature.
Parts stem from different laboratories: compare values within a part only. Substitutions count along the parent as printed.

Study 1 — method: RNA Bind-n-Seq; form: RNA; medium: in vitro; concentration: not given; reference: input RNA pool; reading: higher = stronger binding
Target: RING finger protein unkempt homolog, zinc fingers 1-6, GST-SBP tag (UNK, Homo sapiens, UniProt Q9C0B0, residues 30-357)
Setting: RNA with constant flanks, human and mouse sites, ends assumed
Shared flanks, not repeated: GGGAGUUCUACAGUCCGACGAUC … CAACAGAGGAUUGAGCAUCA
Target sequence (chain): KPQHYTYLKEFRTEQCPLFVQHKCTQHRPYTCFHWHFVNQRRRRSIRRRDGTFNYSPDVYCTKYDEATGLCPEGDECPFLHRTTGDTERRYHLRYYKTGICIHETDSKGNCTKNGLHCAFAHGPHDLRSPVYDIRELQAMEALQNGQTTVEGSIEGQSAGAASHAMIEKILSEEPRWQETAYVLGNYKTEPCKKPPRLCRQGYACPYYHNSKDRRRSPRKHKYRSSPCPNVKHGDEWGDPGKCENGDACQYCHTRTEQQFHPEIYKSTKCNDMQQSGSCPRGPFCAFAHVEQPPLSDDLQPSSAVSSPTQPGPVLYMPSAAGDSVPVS
`CUGUGGGCAUCCCUGCCUGCCUCUUGGGUACAGAGGCCUAGGGCAACUGUUCCUUUUUUUUUUUUUUUUUUAACCUAGUUCAAUGUUUCUUCUUUUCUUUGAGAUAAACUUAUUAAAAAA` has a bound/input enrichment of 4.5 ratio.
The bound/input enrichment of `CCCUGUUCCGUUUUGGUUGAUGGGUGUUUGGGAGGGGGCUGCGGGGGAUACUUUUUUUUUUAGUUCUUCUUUACCCUUAAGGUCAGCCCAUCACAAAAACAGAAACCGUUAAAUACCCCC` is reported as 0.806 ratio.
`AUUGUGGAAGAAGAUGAUGAAAUAAAUCGAGAUUGGUUGGAUUGGACCUAUUCAGCAGCUACAUUUUCUGUUUUUCUCAGUAUCCUCUACUUCUACUCCUCCCUGAGCAGAUUCCUCAUG` gave a bound/input enrichment of 0.114 ratio.
For `AGUGAAGUCCAGGCAAACCUUUCUCUGUUCCUAGAGGCAGCUAGCGGCUUCUAUACUCAGUUAUUACAGGAACUGUGUACGGUGUUUAAUGUAGAUUUGCCAUGCCGUGUGAAGUCUUCC`, the bound/input enrichment was 0.0818 ratio.
The bound/input enrichment of `AAUCCCGAAGCUAUUACCCUUCCAGGAAAUGCUUGGAGCCAUAUGAACAUUCAGGAAGCUGAUUCCCGCGUAAUACAGAGGUAUCGACAGAUUUAACAGUGCCAAGAGCUGCCAAGAGAC` is reported as 0.184 ratio.
For `GUUCAGGAGCCCUGGAAAGGAGAAGGAAUAAGACGACAGGAGGAAGAGAGAGAGAGGGUAGAAUGGAAGAGUCUCACUUCAAUUCUAACCCGUACUUCUGGCCUUCUAUCCCCACAGUCU`, the bound/input enrichment was 0.101 ratio.
`UUUACUGUCACCCUCAUCAGCAAAGACAGGCUAUGCCUCUCGAAUGAAGAACAAAUUAUCAUCCAUGACUUCAUCCUUGAAGCUACACAGGAUGACUACGUACUAGAGGUUCGGCACUUU` has a bound/input enrichment of 0.121 ratio.
`GGAGGAUCAUCUGAGAAGGGAAGAACCAAAAGAGAAUUUAUAUGUUCUAUAUGUGGAAGGACAUUACCUAAAUUAUACUCUCUCCGCAUACAUAUGCUAAAGCACACGGGUGUAAAGCCG` gave a bound/input enrichment of 0.146 ratio.
The bound/input enrichment of `UUCUACGAUCCGGACACCAGCAUCAUCUACUUAUGUGGGAAGGGUGACAGCAGUAUCCGCUAUUUUGAGAUCACGGAUGAAUCCCCAUAUGUCCACUACCUCAACACAUUCAGCAGCAAG` is reported as 0.0961 ratio.
`CAGCUGAUCCGAAGGGAGUUUCAGACCAGUGUAAUCAGCAGAGACAUUGAUACUGCUGCCAAAUUCAUUGGUGCAGGUGCUGCAACAGUAGGAGUUGCUGGUUCUGGUGCUGGUAUUGGA` gave a bound/input enrichment of 0.13 ratio.
The bound/input enrichment of `AGUUUAUCUCCUGAACAUAAUUAUAAUUUUGAUAUUAACACAAUAGGUCAGACUGGAUUUUGUAGCUUUUAUUCUGGAAGUCAGUUUGUCCCAGCUGAUCAGAAUUUGCCUCAGAAGUUC` is reported as 1.94 ratio.

Study 2 — method: RNA Bind-n-Seq; form: RNA; medium: in vitro; concentration: 1 µM; setting: whole 134-nt RNA, ends assumed; with: 150 mM KCl; reference: input library; reading: higher = stronger binding
Target: Ras GTPase-activating protein-binding protein 1, C-terminal RGG region (G3BP1, Homo sapiens, UniProt Q13283)
Sequence of UniProt Q13283 (whole entry, looked up): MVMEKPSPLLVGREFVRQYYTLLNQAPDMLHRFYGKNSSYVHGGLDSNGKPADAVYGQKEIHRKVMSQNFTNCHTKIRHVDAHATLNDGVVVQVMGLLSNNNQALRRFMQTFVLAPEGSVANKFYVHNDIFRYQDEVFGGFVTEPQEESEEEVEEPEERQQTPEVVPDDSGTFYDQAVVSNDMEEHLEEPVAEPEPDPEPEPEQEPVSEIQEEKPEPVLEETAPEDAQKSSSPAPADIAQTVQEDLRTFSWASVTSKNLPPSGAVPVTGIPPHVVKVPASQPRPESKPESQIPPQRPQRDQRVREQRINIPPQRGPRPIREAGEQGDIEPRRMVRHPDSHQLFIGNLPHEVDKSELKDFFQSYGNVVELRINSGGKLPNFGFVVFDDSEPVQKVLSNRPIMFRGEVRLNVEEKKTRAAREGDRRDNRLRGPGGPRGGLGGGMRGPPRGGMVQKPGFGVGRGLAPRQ
Shared flanks, not repeated: GGGAGUUCUACAGUCCGACGAUC … UGGAAUUCUCGGGUGUCAAGG
`ACCAUGCAGGUGGGCAUCUUUGGGAAGUGGGGCAGGGGGGGGAUAGGGAGGGGGGUAACACUUUGGGAACAGGUGGUCCCAGGUCGUUUC` gave a log2 enrichment of -0.975.
`CAAGUCCUGUGCUACACAUCGUAUGUACCGAAUCGUGUGUGUGUGUGUGUGUGUGUAAAGUAUUAUGUUACGCCGUUCGGAUCUGCACUU` gave a log2 enrichment of 1.15.
For `CCUGUGCUACACAUCGUAUGUACCGAAUCGGGGUGGGGAAAAAAAGGGGUUUUUUUGGGGAAAGUAUUAUGUUACGCCGUUCGGAUCUGC`, the log2 enrichment was 0.491.
The log2 enrichment of `UCAAGUCCUGUGCUACACAUCGUAUGUACCGAAUCGGUUUGGUUUUUUUGGUGGAAAGUAUUAUGUUACGCCGUUCGGAUCUGCACUUCC` is reported as -0.994.
The log2 enrichment of `GCAGGAAGUAAAAACAAAUGGAAAUGCUUCGGAUAGUGGGAGGGGUGGGGGUUGCUAAGGAAAGGGUGGGAUGGGAGUGGGUAAAGAGUU` is reported as 1.88.
The log2 enrichment of `CUCAAGUCCUGUGCUACACAUCGUAUGUACCGAAUCGGUGGUUUUUUUGGUGGAAAGUAUUAUGUUACGCCGUUCGGAUCUGCACUUCCA` is reported as -0.737.
With `ACCAUGCAGGUGGGCAUCUUUGGGAAGUGGGGCAAGGGGGGGAUAGGGAGGGGGGUAACACUUUGGGAACAGGUGGUCCCAGGUCGAUUC` the log2 enrichment was 1.42.
`UAACUUUAUAGGAGGAUCUGAUGGAUAUGGCAGUGGACGUGGAUUUGGGGAUGGCUAUAAUGGGUAUGGAGGAGGACCUGGAGGUGGCAA` has a log2 enrichment of -1.4.
`AAGUCCUGUGCUACACAUCGUAUGUACCGAAUCAAAUUUAAACCCCCAAACCCAAAAAAGUAUUAUGUUACGCCGUUCGGAUCUGCACUU` gave a log2 enrichment of -0.963.
`UGGGAGGUGGAUUUUGUUUAUUUUUUUAGCUCAUUUCCAGGGGUGGGAAUUUUUUUUGAAUAUGUGUCAUGAAUAAAGUUGUUUUUGAAA` gave a log2 enrichment of 3.47.
With `CAAGUCCUGUGCUACACAUCGUAUGUACCGAAUCAAAUUUAAACCCAAAUUUAAAAAAGUAUUAUGUUACGCCGUUCGGAUCUGCACUUC` the log2 enrichment was -0.982.
`CAAGUCCUGUGCUACACAUCGUAUGUACCGAAUCGGGAAAAAGGGUGGGUUUGGGAAAGUAUUAUGUUACGCCGUUCGGAUCUGCACUUC` gave a log2 enrichment of 1.9.
`CAAGUCCUGUGCUACACAUCGUAUGUACCGAAUCGGUUUUUGGUUUGGUUUUUGGAAAGUAUUAUGUUACGCCGUUCGGAUCUGCACUUC` gave a log2 enrichment of -1.66.
The log2 enrichment of `CACAGACAACACGCACCCACACAGACACAGAGGGAAGGGGUUGGGAAAGGGACAGGGUGCACAGCAGGGCGGGGUAGGACCCCAGCCCCU` is reported as -0.182.

Study 3 — method: DHFR PCA, deep sequencing; medium: yeast; with: (+)-ABA 4.8 µM; reference: wild-type fitted maximum; reading: higher = stronger binding
Target: ABI1, truncated, D143A, DHFR fusion (Arabidopsis thaliana)
Setting: methotrexate growth selection, single substitutions
Starting sequence: PYL1, truncated, DHFR fusion (Arabidopsis thaliana); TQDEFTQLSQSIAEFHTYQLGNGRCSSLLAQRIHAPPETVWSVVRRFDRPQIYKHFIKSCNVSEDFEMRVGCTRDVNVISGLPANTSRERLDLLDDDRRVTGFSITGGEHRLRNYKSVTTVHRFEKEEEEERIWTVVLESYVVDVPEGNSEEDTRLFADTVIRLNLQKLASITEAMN
`K168D` — result for “relative binding score”: -4.49%.
`H16F`: “relative binding score” -19.1%.
Under “relative binding score”, `D97G` is recorded as 58.1%.
Under “relative binding score”, `D96S` is recorded as -5.69%.
For `G108W`, “relative binding score” read -1.58%.
`F47Q`: “relative binding score” -7.55%.
`S171I` — result for “relative binding score”: 67.1%.
`H34N`: “relative binding score” 76.9%.
`P37T`: “relative binding score” 35.6%.
Under “relative binding score”, `I172H` is recorded as 23.3%.
For `G71T`, “relative binding score” read -1.35%.
`E129V`: “relative binding score” 66.1%.
`Q19P` — result for “relative binding score”: 76.9%.
For `P146K`, “relative binding score” read -9.13%.
`T73Y`: “relative binding score” 80.4%.
`S63V`: “relative binding score” 61.1%.
For `F66Y`, “relative binding score” read 54.1%.

Study 4 — method: RNA Bind-n-Seq; form: RNA; medium: in vitro; concentration: 365 nM; reference: no-protein control; reading: higher = stronger binding
Target: RNA binding protein fox-1 homolog 2, RRM domain, GST-SBP tag (RBFOX2, Homo sapiens, UniProt O43251-10, residues 100-194)
Setting: natural RNA segment, single round, ends assumed
Shared flanks, not repeated: GGGAGUUCUACAGUCCGACGAUC … UGGAAUUCUCGGGUGCCAA
Residues (chain): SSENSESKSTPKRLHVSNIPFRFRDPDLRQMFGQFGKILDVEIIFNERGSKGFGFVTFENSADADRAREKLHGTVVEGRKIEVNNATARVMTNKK
Under “RBNS enrichment (R)”, `ACCUUGCCUUUACCCAAACUUUGUGGUUUACCCCUUCACCUCCCAGGGGCCCCGACUCUUAAGGGGGAGGGUGUGGCUUAACUGCAGCGUUGGAACCUUAAAGUGGGAAA` is recorded as 0.266.
`AAGUAGUAAUUUAUAAAUUUAGUAUUUGCAGUGGUUCACGCCUGUAAUCCCACCACUUUGGGAGGCCGAGGUGGGCGGAUCACGAGGUCAGGAAAUCGAGACCAUCCUGG` — result for “RBNS enrichment (R)”: 0.288.
`UUGUUUGGGACCUGGGUACAGGUAAAAGCCAGACUUGGCAGGGACCCCUCUUUCUAGGCUGAACCUUGAGUCCCCCUGCUUUUUGGCAGACCUAAUGGAUCACUGUCUUG` — result for “RBNS enrichment (R)”: 0.216.
Under “RBNS enrichment (R)”, `ACUUGGAACCAACCCAAAUGUCCAACAAUGAUAGACUGGAUUAAGAAAACGUGGCACAUAUACACCAUGGAAUACUAUGCAGCCAUAAAAAAUGAUGAGUUCAUGUCCUU` is recorded as 0.347.
`CUUGCCGAUAAUACUGACUCUAGCCCAUGAUUGCCUUGCCCAAGCCAAAGAGGAAGGUUAGGUUGGCUUGUCGAGCCCUUGAGCGUUGGGAGAUGGGGUGGGAAGGAGGU`: “RBNS enrichment (R)” 0.965.
Under “RBNS enrichment (R)”, `CACAACACACUGUAUGUGCAUACAUGAAACACAAACAGCUUUUUACUGAACAGAAUUAUAGACAUUUGCUGGUGGAAGGGAUAACUAUGUACAUCUAACUAGGACUCAGA` is recorded as 0.61.
`UAACCCAGCAGGCCCACCCCUCUGGGAGUCGUUGGUCUCCACCAGUUUUGUUAGGCUUUGAGUGUCUAUUCGGUUCCUAUCAAAGCUAGUGUGUAUUCCUUUCCACUACA` — result for “RBNS enrichment (R)”: 0.221.
Under “RBNS enrichment (R)”, `CUGAGUGGGGUACGCUAAUUAUACUUUUUGUUGUGGAUAAAAAAUGCUUGUCAAUAGCCUUUUUCUAUCAAGAAAACAAGGAGCUAAUUAUUAAUAACAGUCAUGGCACA` is recorded as 0.292.
`AAAAACUAAUUGUGAUUUCUAGUCUUGCAAAGCUGUAUGUAGUUAGAUGAUGUGACAACCUCUAAUAUUUAUCUAAUAAAUAUGUAUUCAGAUGAAACCUGUAUAUUAGG`: “RBNS enrichment (R)” 0.817.
Under “RBNS enrichment (R)”, `AGGUACAGACGACCUCGGGGCAGUGACGAGCAAAGACCAGAGACUGCUGAGCCCUCGCAUCUGGGUGGCGGAAUUGCCUGCGGGGUUUUGCCCUUGGUUUACUGAGGGGG` is recorded as 3.19.
`AAUGAUGUUAUAGAAUUAUUUUUGAGCAGGAGCAGAAAGAUUAAAUAUGAUCACUUCAUACUUCUAAAUCAGAAAUAGGAAGAUUAAAACCACAGAACAGUUUGUGAUUU`: “RBNS enrichment (R)” 0.353.
For `UUUAGAACUGGUAGAGCCUACCUAAGGGUCUCCCCAUCUCCAGGAACUCUCAUGUAGGAUUUUUAAAGGACCGGUAAAGAAUGGUGUUUGAGAAAUGGUGUAUGAUGCCU`, “RBNS enrichment (R)” read 1.95.
